Published values collected from several papers.
A part holds a random share of what one study measured. Substitutions count along the parent as printed.

Series 1 — target: CCND2, cyclin fold, Cln2 fusion (human); method: yeast growth competition, sequencing; sample: yeast; setting: weak parent motif; relative to: not given; reading: higher = stronger binding; quantity: normalised enrichment score
Parent: PLK5 docking peptide (human); IFRKVGQRLLTQC; partner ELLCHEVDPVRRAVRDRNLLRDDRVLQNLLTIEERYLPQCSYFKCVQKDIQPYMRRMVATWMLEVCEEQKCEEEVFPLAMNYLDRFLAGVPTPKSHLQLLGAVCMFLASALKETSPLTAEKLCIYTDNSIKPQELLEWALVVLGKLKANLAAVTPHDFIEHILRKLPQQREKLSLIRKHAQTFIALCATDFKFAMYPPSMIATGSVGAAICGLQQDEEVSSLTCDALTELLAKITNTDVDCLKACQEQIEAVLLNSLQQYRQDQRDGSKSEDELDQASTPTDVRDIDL
IFRKVGARLLTQC [Q7A]: -0.198
IFRKVGQRLLTAC [Q12A]: -0.216
IFRKVGQALLTQC [R8A]: -0.351
IFRKVGQRALTQC [L9A]: 0.0373
IFRAVGQRLLTQC [K4A]: -0.388
IFRKVGQRLATQC [L10A]: -0.608

Series 2 — method: RNA Bind-n-Seq; form: RNA; sample: in vitro; tested at: not given; relative to: input RNA pool; reading: higher = stronger binding; quantity: bound/input enrichment
Target: RING finger protein unkempt homolog, zinc fingers 1-6, GST-SBP tag (UNK, Homo sapiens, UniProt Q9C0B0, residues 30-357)
Setting: RNA with constant flanks, human and mouse sites, ends assumed
All sequences stand within: GGGAGUUCUACAGUCCGACGAUC … CAACAGAGGAUUGAGCAUCA
Residues (chain): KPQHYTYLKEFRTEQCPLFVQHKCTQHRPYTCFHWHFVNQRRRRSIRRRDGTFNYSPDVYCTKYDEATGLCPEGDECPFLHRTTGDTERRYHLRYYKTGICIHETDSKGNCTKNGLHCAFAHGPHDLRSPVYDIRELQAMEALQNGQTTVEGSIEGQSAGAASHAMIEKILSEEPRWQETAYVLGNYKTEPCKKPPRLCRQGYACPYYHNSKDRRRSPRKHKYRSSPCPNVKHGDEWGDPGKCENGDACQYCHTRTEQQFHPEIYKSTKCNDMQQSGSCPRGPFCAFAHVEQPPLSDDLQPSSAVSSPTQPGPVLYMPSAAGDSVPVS
CUUAAAAUUAAUUUUCAUGGUUCCAAGUCAUCAGAUUCUAGUGAAGUUCACAAGAGUAAAAUAGAAAUUAAUGUGUUAGAACCAGUUAUGUCACAGCUAUCAAAUUGCCAAGAUAAUUCU: 1.57 ratio
ACGCUGCCCUCGGACAAGCUGAGCAAGAUUCAGACCCUCAAACUGGCGGCCAGGUACAUCGACUUCCUGUACCAGGUCCUGCAGAGCGACGAGCUGGACUCCAAGAUGGCAAGCUGCAGC: 0.184 ratio
CUGAUCAUUGGAAAAGGAGGUGAAACCAUAAAAAGCAUAAGCCAACAGUCUGGUGCAAGAAUAGAACUGCAGAGAAGCCCUCCACCUAAUGCAGAUCCCAAUAUGAAGUUAUUUACAAUU: 0.225 ratio
GCUCCUAUUAAUGAGGUGGCAAGAUUUAACCUGAUGCAGGUUGGCCGCCUUUUGCAGCAGCUAGCAAUGACUGGCACUGAAGAAGGAGAUCCCCGGACCAAAAAUAGCCUUGGAAAAUUU: 0.295 ratio
GACUACUUCACUUGCAUAACUAAAGCUUAUGAAAUGUUAUCUGAUCCAGUGAAAAGACGAGCAUUUAACAGUGUAGAUCCUACUUUUGAUAACUCAGUUCCUUCUAAAAGUGAAGCAAAG: 0.0747 ratio
GACCCCCACUCCCUGUGAGAGGGAAUGGGGGAAGCCUGAUGACCCUCAGCUGUUCCAAUCUAGUAUUUUUUUUCUUUUUUAAAAUUACUGUAUUUAUUAUGACGAUGGUGACUCCCCAGU: 12.2 ratio
CCUUCUUCUCAAACUAAGGAGCAACCUGGAUCCCCACACUCUGUAUCUGGAGAGAUCUUGGGUCAGGAAAAGCCCACAUACAGGUCGCCGUCUGGCGGUCUUCCUGUUUCUACCCAUCCA: 0.226 ratio
UAACCACAUCAAGAUGGUUGGGAAGCUGAAGCAGAACUUACUCUUGGCGUGUCUGGUGAUUAGUUCUGUGACCGUGUUUUACCUGGGCCAGCAUGCCAUGGAGUGCCAUCACCGAAUAGA: 0.282 ratio
GCAAGCCCCAAGGCUGAGCCCAUCUGGGAGCUCCCUACCCGUGCACCCAGGCUCUCUAUUGGGGACCUGGACUUUUCAGAUCUAGGGGAGGAUGAAGACCAGGACAUGCUGAAUGUAGAG: 0.371 ratio
UCAGAGGAAAUCGAGACAAGCGAACUGCCCCAGAAAAUGAAAGGCAAGCUGAAAAAUGUACAGUUAAAUACUAAAAGUAGAGUAAAAGGAUCAUCUAAGGUUAAGGAAGAUUCAAAAUUU: 0.961 ratio
UACAUUGUUGCCAAUUACUUUUCAGAGCUUUUCCAUUUGCUGUCCUCAGGAAAUUGCAAAACCAGAAAUCUUGUUUUGAAACUACUUUUAAAUAUGUCUGAAAAUCCAACUGCAGCCAGA: 0.184 ratio

Series 3 — method: DHFR PCA, deep sequencing; sample: yeast; with: (+)-ABA 4.8 µM; relative to: wild-type fitted maximum; reading: higher = stronger binding; quantity: relative binding score
Target: ABI1, truncated, D143A, DHFR fusion (Arabidopsis thaliana)
Setting: methotrexate growth selection, single substitutions
Parent: PYL1, truncated, DHFR fusion (Arabidopsis thaliana); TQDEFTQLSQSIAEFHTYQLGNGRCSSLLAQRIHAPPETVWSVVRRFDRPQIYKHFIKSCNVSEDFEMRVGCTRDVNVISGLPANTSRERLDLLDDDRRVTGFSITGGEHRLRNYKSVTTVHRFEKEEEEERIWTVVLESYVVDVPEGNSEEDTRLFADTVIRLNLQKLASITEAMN
I12R: 11.7%
Q19C: 57.9%
R46Q: 72.4%
S80R: -2.3%
N149G: 28.4%
A30W: 71.4%
D153V: -0.928%
I105L: -11.2%
N61C: 70.8%
D75A: 60.6%
G102M: 9.46%
E109Q: 66.6%

Series 4 — method: Sort-seq; refers to: YFP reporter; sample: E. coli; setting: PhoQ-PhoP variant library; with: 10 µM Mg2+; relative to: high Mg2+ state; reading: higher = stronger signaling; quantity: fold induction
Molecule: PhoQ, residues 284 288 289 292 302 303 ALSMDL
PhoP, residues 12 14 15 18 19 LHHYF (Escherichia coli, UniProt P23836): 8.91
PhoP, residues 12 14 15 18 19 NFFVT (Escherichia coli, UniProt P23836): 1.09
PhoP, residues 12 14 15 18 19 VGHWL (Escherichia coli, UniProt P23836): 2.2
PhoP, residues 12 14 15 18 19 TPWTL (Escherichia coli, UniProt P23836): 16.6

For quick reference, copied from above (series 3):
N149G: 28.4%
A30W: 71.4%
D153V: -0.928%
I105L: -11.2%
